Measurements of several laboratories.
A part holds a random share of what one study measured.

Block 1
Target: Interferon regulatory factor 7, full length, phosphomimetic (IRF7, Homo sapiens, UniProt Q92985, residues 1-503, S471D/S472D/S475D/S476D/S477D/S483D/S484D/S487D)
Method: protein-binding microarray
Molecule type: double-stranded DNA, one strand shown
Sample: in vitro
Tested at: 2200 nM top
Setting: 60-bp whole probe
Together with: salmon DNA 0.4 mg/ml
Baseline: random background probes
Reading: higher = stronger binding
Quantity: fitted relative affinity
All sequences stand within: GCCTAGCAC … GTCTTGATTCGCTTGACGCTGCTG
Construct (chain): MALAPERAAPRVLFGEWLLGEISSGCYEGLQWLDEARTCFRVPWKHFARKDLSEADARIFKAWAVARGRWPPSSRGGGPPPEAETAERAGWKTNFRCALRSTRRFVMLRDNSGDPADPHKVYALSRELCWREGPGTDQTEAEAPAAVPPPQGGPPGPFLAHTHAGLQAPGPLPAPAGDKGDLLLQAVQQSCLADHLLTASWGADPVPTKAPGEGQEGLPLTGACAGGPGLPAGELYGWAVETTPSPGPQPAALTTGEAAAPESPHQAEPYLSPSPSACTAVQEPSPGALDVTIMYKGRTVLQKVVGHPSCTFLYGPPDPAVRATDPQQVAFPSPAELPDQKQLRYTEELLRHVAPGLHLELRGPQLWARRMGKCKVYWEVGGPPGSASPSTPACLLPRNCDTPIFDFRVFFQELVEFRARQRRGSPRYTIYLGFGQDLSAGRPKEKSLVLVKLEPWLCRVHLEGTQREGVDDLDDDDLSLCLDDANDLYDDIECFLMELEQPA
TCATACCTCATCTTTCCCACTGTGCTA: 2.19 z-score
GCAACACTCACCATGGCTAGGTGCTAG: 0.638 z-score
TCAGGTTTCGACACTGGGTTAGTGCTA: 2.8 z-score
TTGGTTTCTGGTTTATTGAGGTGCTAG: 4.88 z-score
GACGAACTGAGTTTCGAGCCGTGCTAG: 1.72 z-score
TTAGGTCTCCTTCTCCTCTAGTGCTAG: 0.992 z-score
GACGGTATCGGAATCGGGACGTGCTAG: 0.246 z-score
GACGATTTCGACTTTCGGGACGTGCTA: 5.7 z-score
TTAGATATCGGACTGGATTAGTGCTAG: -0.084 z-score
TCAGGTATCGGTCTCGGTTAGTGCTAG: 1.59 z-score
TTTGCTTTCCTTCTTGAACTGTGCTAG: 3.47 z-score
TTAGGTATCGGTATAGGTTAGTGCTAG: 0.334 z-score
TTAGGACTCGGGACTGGGTTAGTGCTA: -0.612 z-score
GCCGGTATCGACTATCGGGACGTGCTA: 0.0917 z-score
TTAAGACTGGGTATCGGTTAGTGCTAG: -0.348 z-score
GGATTTCAGTTTCTCTTTCCGTGCTAG: 6.86 z-score
TCATGTCTGGGTATTTTACTGTGCTAG: 0.737 z-score
TTAGGTATCGACTTTCCGTTAGTGCTA: 2.25 z-score
TCAGATAACTTTTTTTTACTGTGCTAG: 0.0244 z-score
TTCGATTTCAGACTGGATTAGTGCTAG: 1.36 z-score
TTAGGACTGGGTCTAGGTTAGTGCTAG: -0.775 z-score
TACGATCTCAGACTGGAGACGTGCTAG: 0.0153 z-score
TAAGATATCGGGTATCGATTAGTGCTA: 0.0553 z-score
TTAGGTTTCGGGTATCAGTTAGTGCTA: 5.52 z-score
TCAGCTTTCTTTAACTCACTGTGCTAG: 0.847 z-score

Block 2
Target: Ras GTPase-activating protein-binding protein 1, full length (G3BP1, Homo sapiens, UniProt Q13283)
Sequence of UniProt Q13283 (whole entry, looked up): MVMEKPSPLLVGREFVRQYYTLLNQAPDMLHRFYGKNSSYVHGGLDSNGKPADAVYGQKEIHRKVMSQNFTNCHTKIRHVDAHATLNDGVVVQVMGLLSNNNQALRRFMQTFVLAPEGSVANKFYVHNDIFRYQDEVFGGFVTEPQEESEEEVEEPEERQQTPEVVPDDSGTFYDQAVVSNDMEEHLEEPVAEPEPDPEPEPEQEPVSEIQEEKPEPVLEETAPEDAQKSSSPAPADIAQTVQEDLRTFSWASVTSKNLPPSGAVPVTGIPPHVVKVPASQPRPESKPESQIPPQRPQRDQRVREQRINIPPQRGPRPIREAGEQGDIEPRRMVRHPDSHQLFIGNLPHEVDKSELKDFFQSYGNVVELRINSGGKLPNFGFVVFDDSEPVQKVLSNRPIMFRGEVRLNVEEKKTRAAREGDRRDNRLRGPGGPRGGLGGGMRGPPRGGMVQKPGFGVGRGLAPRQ
Method: RNA Bind-n-Seq
Molecule type: RNA
Sample: in vitro
Tested at: 200 nM
Setting: whole 134-nt RNA, ends assumed
Together with: 150 mM KCl
Baseline: input library
Reading: higher = stronger binding
Quantity: log2 enrichment
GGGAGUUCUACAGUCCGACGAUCUAACUAUAGAGGAGGAUCUGAUGGAUAUGGCAGUGGACGUGGAUUUGGGGAUGGCUAUAAUGGGUAUGGAGGAGGACCUGGAGGUGGCAAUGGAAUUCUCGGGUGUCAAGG: 0.408
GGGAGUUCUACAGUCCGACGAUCCUGUGCUACACAUCGUAUGUACCGAAUCGGCCCCCCCGGGCCCCCCCGGGGCCCCCCCGGGAAAGUAUUAUGUUACGCCGUUCGGAUCUGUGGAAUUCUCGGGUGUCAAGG: -0.869
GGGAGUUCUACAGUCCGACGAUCUGGGAGGUGGAUUUUGUUUAUUUUUUUAGCUCAUUUCCAGGGGUGGGAAUUUUUUUUUAAUAUGUGUCAUGAAUAAAGUCGUUUUUGAAAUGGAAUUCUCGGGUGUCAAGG: 0.16
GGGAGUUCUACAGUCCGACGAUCUUGUUCUGGCAUAAACAUAACAUUGAGAAGUCCCUUGCUGAUCUCCCUAAUUUCACUCCCUUUCCGGAUGAGUGGACAGUGGAAGAUAAAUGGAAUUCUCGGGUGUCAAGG: -0.453
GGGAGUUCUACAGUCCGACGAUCAGUCCUGUGCUACACAUCGUAUGUACCGAAUCAAACCCAAACCCCCCCAAACCCAAAAAAGUAUUAUGUUACGCCGUUCGGAUCUGCACUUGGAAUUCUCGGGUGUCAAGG: -0.484
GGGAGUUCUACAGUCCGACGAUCAGUCCUGUGCUACACAUCGUAUGUACCGAAUCGGGGUUUUUUUGGGGAGGGGUGGGGAAAGUAUUAUGUUACGCCGUUCGGAUCUGCACUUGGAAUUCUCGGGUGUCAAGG: 0.545
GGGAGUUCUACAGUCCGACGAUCCAAGUCCUGUGCUACACAUCGUAUGUACCGAAUCGGGUGGGUUUUUGGGAAAGGGAAAGUAUUAUGUUACGCCGUUCGGAUCUGCACUUCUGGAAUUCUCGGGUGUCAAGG: 0.218
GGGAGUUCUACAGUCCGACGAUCGUCCUGUGCUACACAUCGUAUGUACCGAAUCGGGGCCCCCGGGCCCCCGGCCCCCGGGAAAGUAUUAUGUUACGCCGUUCGGAUCUGCACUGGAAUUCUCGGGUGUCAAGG: -0.293
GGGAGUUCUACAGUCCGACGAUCUCCUGUGCUACACAUCGUAUGUACCGAAUCGGGGAAAAAGGGGUGGGGAAAAAAAGGGGAAAGUAUUAUGUUACGCCGUUCGGAUCUGCAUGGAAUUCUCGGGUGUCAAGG: 0.571
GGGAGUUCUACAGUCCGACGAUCCUCAAGUCCUGUGCUACACAUCGUAUGUACCGAAUCGGCCGGGGCCGGGGCCGGAAAGUAUUAUGUUACGCCGUUCGGAUCUGCACUUCCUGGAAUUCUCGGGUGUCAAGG: -0.507

Block 3
Target: Histone acetyltransferase KAT6A, winged helix 1, GST fusion (KAT6A, Homo sapiens, UniProt Q92794, residues 1-85)
Method: protein binding microarray
Molecule type: double-stranded DNA, one strand shown
Sample: in vitro
Tested at: not given
Setting: 8-mer, flanks averaged, mean of 2 arrays, mostly near background
Baseline: not given
Reading: higher = stronger binding
Quantity: E-score
Target sequence (chain): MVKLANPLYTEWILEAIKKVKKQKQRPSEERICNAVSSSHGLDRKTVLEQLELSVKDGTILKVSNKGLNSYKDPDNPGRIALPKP
AGCCTCAC: -0.287
GTGGCTGA: -0.0623
CATCTTGG: -0.293
CATCAATG: -0.0575
CGACGTCC: 0.171
CATTACGA: 0.0165
GCATGCTA: 0.00867
TACACAGA: -0.251
CAATCCCG: 0.281
CAGCTTAC: 0.0673
AGTCTACC: 0.0872
ATAGATGG: -0.0821
GTCAGGGA: -0.116
AAACTAAA: -0.263
AAGCACGC: 0.0686
ACGCCCTA: 0.0664
AGCTCAAC: -0.118

Block 4
Target: RNA binding protein fox-1 homolog 2, RRM domain, GST-SBP tag (RBFOX2, Homo sapiens, UniProt O43251-10, residues 100-194)
Method: RNA Bind-n-Seq
Molecule type: RNA
Sample: in vitro
Tested at: 365 nM
Setting: natural RNA segment, single round, ends assumed
Baseline: no-protein control
Reading: higher = stronger binding
Quantity: RBNS enrichment (R)
Target sequence (chain): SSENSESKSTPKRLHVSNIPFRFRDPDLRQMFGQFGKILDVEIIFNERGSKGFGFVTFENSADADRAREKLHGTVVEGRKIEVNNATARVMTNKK
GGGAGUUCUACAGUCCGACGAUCCCUUGUCAUUCCUAUGUACAGUAGCUGGAAGUCGCAGUGAGCAAGCAUAACCCACGUUUGUAUAAAUUAUUGAAAUCCAUUUUCACCUAAGAAUGGACUUAAGAAGUACUUGGAAUUCUCGGGUGCCAA: 0.392
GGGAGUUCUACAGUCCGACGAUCGAGGUUUCCAUUUUUAUUUAAAUUACUAAUGGAUCAAAGAACAAUUGUUUAUUUUUUCUCUUUGGUUUUAGAUAUUAAUGAUAACCUUGUUGGAAUUUUUUUUCCAAAGAUGGAAUUCUCGGGUGCCAA: 0.485
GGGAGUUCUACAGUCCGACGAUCCUCUUCUCCUGUGUUCCCUUUGAGUCCAGUGUGGGACACGGUUUAACUGUCCCAGCGACAUUUCUCCAAGUGGAAAUCCUAUUUUUGUAGAUCUCCAUGCUUUGCUCUCAUGGAAUUCUCGGGUGCCAA: 0.389
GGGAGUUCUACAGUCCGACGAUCCCUGCGGCCUCUGCCAAGACCUAACUCUAGACCACCUUCAGCUCUUUUAUUUUAUUUUUUUAGUUUUAUUUUGCACGUGUAGAGUUUUUGUCAUCAGACAAGGACUUUGAUGGAAUUCUCGGGUGCCAA: 6.48
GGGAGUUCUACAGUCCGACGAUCCCACCUGAAACAUCCCAGCAGGCCCCUUGCUGCCAUGCCUUAUGGUUCCCAAUCAGCCAUUACCAUCUCCACCUGCCGCCAGCCACCAAAUCACCAGCAGGAGGGUCUGCUGGAAUUCUCGGGUGCCAA: 0.883
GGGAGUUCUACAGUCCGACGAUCGAGAUGAUUCGAAGGGCCUUUCACUUUUAUUAAACAGUGACUUGUUUGACUGUGCUCCCUGGUCCUGUGAGGGCUUCAGUGCCCCACCCCUGGGCCACUUCUGCAGCUCCUGGAAUUCUCGGGUGCCAA: 0.253
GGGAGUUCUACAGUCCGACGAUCUUCGGUGUUUGGCACGAGCACUGUCUCGCUGUGGCUGUGUGUCAUGAGAACUUACCAGCAGAAAUCCUUGUUCCUAAGCUACAGAAUGACCAAAAGCUGUCAAGUCCUUAUGGAAUUCUCGGGUGCCAA: 2.33
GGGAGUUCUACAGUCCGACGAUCAUGAUUGAGUUAUUUAGUGAAAAUGUGGAACUAGCUGCCAGUGCCUCAGUCUUCUUGUAUAAUGCCUUUCCAUGGAUUGGCAUCCUGCCUUUUGGAAAACAUCAACAGCUUGGAAUUCUCGGGUGCCAA: 0.57
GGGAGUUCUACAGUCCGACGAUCGGAAGCUGGUGAAGUCCUGUUCUUAUUAUGAAUCCAUUCAUUCAAGAAAAUAGCCUGUUGCACAUUUCUCUGUUUCUUUGUGCCCUGCAAGCCCUGCCCCCAAGACCUAGUGGAAUUCUCGGGUGCCAA: 3.17

Some of these lines once more (block 1):
GGATTTCAGTTTCTCTTTCCGTGCTAG: 6.86 z-score
TTAGGTATCGGTATAGGTTAGTGCTAG: 0.334 z-score
GACGAACTGAGTTTCGAGCCGTGCTAG: 1.72 z-score
